Measurements of several laboratories.
Lines come from different studies, so protocols differ.
ADRA1B: Alpha-1B adrenergic receptor (ADRA1B, Homo sapiens, UniProt P35368)
Sequence of UniProt P35368 (whole entry, unmodified, looked up): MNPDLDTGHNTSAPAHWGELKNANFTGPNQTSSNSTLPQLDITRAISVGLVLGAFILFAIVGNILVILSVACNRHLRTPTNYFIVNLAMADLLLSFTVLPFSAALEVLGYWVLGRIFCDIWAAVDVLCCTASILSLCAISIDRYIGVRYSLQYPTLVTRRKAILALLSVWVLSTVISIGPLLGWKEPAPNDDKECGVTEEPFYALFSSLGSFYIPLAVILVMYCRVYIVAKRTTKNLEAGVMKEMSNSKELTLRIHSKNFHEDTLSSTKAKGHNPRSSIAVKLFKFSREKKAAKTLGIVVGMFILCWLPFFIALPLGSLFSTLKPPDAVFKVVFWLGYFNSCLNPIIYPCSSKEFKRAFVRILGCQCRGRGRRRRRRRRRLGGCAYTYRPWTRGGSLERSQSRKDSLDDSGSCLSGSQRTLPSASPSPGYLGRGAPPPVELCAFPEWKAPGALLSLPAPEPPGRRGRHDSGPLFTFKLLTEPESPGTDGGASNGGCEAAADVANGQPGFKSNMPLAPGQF
HTR2B: 5-hydroxytryptamine receptor 2B (HTR2B, Homo sapiens, UniProt P41595)
Sequence of UniProt P41595 (whole entry, looked up): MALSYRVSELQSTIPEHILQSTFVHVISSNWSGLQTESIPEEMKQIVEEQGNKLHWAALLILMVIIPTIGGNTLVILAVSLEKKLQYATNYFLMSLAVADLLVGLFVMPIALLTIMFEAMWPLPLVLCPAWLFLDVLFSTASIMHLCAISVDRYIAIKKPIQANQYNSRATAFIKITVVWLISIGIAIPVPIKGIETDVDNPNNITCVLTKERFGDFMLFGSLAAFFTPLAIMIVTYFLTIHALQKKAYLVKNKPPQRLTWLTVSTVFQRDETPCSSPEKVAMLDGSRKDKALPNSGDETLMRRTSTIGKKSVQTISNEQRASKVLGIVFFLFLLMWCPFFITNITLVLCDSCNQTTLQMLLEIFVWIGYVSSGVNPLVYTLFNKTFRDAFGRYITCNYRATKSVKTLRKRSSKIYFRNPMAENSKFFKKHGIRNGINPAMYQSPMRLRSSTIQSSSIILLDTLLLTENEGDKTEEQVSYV
SLC6A3: Sodium-dependent dopamine transporter (SLC6A3, Homo sapiens, UniProt Q01959)
Sequence of UniProt Q01959 (whole entry, looked up): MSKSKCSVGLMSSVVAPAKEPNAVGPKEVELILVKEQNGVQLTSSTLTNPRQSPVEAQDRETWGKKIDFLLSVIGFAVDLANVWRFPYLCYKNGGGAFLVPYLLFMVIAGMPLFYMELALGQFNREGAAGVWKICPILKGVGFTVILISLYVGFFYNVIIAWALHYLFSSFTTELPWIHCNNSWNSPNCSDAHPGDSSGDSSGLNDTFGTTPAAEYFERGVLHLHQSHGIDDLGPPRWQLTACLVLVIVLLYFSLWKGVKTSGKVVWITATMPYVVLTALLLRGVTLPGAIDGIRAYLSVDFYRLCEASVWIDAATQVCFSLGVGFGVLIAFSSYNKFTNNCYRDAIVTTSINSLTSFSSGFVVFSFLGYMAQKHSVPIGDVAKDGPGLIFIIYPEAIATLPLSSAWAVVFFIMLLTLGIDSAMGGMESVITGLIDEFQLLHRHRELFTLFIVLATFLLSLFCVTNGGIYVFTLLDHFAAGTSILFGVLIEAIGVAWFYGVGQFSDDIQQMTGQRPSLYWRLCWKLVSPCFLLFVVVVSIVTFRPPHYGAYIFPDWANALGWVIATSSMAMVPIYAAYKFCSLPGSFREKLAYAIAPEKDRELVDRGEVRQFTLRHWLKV
PLEKHA3: PLEKHA3 (Homo sapiens, UniProt Q9HB20)
Sequence of UniProt Q9HB20 (whole entry, looked up): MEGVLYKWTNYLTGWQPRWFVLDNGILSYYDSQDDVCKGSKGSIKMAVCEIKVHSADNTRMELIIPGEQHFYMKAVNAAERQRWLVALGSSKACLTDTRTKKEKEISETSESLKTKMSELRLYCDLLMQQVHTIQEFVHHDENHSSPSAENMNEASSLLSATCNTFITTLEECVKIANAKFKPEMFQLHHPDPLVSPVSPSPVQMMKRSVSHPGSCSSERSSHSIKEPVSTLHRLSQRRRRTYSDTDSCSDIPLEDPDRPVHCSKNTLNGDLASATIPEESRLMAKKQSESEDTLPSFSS
ADRA1B V197I: Alpha-1B adrenergic receptor (ADRA1B, Homo sapiens, UniProt P35368, V197I)
Sequence of UniProt Q9BE39 (whole entry, looked up): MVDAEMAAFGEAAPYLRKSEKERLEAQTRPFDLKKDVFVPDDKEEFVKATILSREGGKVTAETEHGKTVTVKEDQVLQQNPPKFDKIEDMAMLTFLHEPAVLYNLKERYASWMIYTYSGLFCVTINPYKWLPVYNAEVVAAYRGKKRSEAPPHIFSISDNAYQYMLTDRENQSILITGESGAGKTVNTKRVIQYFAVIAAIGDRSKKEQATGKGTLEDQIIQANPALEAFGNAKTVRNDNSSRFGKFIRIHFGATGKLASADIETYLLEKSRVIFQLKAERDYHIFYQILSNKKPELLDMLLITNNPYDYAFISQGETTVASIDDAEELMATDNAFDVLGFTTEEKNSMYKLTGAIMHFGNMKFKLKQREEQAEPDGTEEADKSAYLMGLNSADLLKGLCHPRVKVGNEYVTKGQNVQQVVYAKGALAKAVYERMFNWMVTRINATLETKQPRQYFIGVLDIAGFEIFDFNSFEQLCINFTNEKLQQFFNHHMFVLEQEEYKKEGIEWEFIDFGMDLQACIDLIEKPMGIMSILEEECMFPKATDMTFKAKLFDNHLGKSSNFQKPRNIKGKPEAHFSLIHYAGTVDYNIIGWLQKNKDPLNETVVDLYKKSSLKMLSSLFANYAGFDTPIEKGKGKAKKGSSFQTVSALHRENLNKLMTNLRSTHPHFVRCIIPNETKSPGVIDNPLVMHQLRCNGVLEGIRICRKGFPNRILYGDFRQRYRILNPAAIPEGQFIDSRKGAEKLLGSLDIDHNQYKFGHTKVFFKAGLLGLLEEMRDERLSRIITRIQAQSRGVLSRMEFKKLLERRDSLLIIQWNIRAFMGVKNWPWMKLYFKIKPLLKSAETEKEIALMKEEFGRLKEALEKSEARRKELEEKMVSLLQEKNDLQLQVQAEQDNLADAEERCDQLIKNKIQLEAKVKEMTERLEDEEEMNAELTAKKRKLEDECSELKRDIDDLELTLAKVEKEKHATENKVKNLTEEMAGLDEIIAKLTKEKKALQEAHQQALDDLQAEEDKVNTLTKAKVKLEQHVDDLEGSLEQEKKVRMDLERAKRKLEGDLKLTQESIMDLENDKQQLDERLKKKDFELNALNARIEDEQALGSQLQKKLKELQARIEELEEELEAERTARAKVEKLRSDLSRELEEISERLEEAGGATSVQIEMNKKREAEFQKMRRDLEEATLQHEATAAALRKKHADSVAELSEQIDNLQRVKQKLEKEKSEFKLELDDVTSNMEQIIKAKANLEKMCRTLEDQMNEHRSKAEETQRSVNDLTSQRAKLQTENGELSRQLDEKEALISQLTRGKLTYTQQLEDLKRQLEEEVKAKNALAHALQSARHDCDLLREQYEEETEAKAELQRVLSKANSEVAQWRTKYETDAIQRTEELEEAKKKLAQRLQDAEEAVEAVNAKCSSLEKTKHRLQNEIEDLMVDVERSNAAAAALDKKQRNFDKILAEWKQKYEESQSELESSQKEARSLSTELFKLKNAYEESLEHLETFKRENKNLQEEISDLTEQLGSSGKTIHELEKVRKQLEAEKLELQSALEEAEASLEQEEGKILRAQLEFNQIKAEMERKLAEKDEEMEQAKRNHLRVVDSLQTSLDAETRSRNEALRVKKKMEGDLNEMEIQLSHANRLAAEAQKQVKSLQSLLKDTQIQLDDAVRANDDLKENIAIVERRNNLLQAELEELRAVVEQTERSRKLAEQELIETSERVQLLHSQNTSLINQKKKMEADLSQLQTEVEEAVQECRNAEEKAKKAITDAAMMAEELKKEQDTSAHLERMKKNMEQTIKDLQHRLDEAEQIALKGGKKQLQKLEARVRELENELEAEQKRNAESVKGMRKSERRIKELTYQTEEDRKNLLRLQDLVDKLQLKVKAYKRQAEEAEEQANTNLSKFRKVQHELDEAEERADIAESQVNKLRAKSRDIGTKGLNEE
Sequence of UniProt Q92769 (whole entry, looked up): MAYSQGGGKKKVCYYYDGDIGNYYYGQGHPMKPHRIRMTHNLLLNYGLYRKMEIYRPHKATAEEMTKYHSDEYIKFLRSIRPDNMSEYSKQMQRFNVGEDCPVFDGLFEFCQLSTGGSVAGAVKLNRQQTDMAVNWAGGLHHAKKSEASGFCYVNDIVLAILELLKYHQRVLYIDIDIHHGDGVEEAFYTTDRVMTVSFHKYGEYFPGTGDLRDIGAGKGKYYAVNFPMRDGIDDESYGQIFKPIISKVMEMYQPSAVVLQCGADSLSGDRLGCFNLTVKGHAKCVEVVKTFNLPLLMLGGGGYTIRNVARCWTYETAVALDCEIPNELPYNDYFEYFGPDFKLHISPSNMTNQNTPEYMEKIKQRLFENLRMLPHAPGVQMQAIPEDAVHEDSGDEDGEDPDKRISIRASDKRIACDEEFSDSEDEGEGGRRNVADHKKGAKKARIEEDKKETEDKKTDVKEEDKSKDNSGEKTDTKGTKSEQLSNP
Sequence of UniProt Q15391 (whole entry, looked up): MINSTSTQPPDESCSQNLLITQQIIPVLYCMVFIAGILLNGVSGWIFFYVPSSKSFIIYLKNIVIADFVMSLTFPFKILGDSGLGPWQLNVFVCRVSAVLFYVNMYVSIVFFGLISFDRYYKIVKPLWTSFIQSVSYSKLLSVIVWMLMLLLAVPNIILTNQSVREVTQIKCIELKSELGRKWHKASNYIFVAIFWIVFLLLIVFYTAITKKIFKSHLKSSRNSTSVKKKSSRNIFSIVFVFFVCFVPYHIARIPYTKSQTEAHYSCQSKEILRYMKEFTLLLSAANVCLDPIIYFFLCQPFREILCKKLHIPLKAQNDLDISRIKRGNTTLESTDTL
Sequence of UniProt P48039 (whole entry, looked up): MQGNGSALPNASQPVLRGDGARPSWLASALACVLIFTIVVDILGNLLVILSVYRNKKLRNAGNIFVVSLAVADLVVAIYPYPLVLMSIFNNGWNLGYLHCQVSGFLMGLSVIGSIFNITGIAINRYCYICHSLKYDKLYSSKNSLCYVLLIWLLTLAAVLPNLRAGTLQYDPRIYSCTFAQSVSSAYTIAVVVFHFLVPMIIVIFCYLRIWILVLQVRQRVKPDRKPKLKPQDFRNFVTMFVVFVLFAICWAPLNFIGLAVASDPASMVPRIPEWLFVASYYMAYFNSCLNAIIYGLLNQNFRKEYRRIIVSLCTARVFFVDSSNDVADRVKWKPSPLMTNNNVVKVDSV

SMILES | target | effect on | action | method | Ki
Cc1cc(Oc2ncccc2CN2CCN(c3ncccc3C(F)(F)F)CC2)ccc1-c1c(C)c(=O)[nH]c(=O)n1C | ADRA1B | ligand displacement | – | radioligand | 3170 nM
OC[C@@]12C[C@@H]1[C@@H](n1cnc3c(NC4CCCC4)nc(I)nc31)[C@H](O)[C@@H]2O | HTR2B | ligand displacement | – | radioligand | 28.1 nM
Cc1cc(Oc2ncccc2CN2CCN(C(c3ccccc3)c3ccccc3)CC2)ccc1-c1c(C)c(=O)[nH]c(=O)n1C | ADRA2A (Homo sapiens, UniProt P08913) | ligand displacement | – | radioligand | 247 nM
O=C1c2ccccc2N=C2N(c3ccccc3)CCC12O (stereo not drawn) | Myosin-7 (MYH7, Bos taurus, UniProt Q9BE39) | ATPase activity | inhibitor | – | 2600 nM
OC[C@@]12C[C@@H]1[C@@H](n1cnc3c(NC(C4CCC4)C4CCC4)nc(C#Cc4ccc(Cl)s4)nc31)[C@H](O)[C@@H]2O | SLC6A3 | ligand displacement | – | radioligand | 1100 nM
N#C[C@@]12C[C@@H]1[C@@H](n1cnc3c(N[C@@H]4CCC(F)(F)C4)nc(I)nc31)[C@H](O)[C@@H]2O | HTR2B | ligand displacement | – | radioligand | 13.4 nM
Cn1ccc(-c2ccc(-c3cc(C(=O)O)cc4cc(-c5ccc(C(F)(F)F)cc5)ccc34)cc2)n1 | P2Y purinoceptor 14 (P2RY14, Homo sapiens, UniProt Q15391) | ligand displacement in cells | – | flow cytometry | 20.6 nM
Cc1cc(Oc2ncccc2CN2CCN(c3ccccc3O)CC2)ccc1-c1c(C)c(=O)[nH]c(=O)n1C | ADRA1B | ligand displacement | – | radioligand | 1730 nM
CC(C)[C@@H](Nc1nc(I)nc2c1ncn2[C@H]1[C@H](O)[C@H](O)[C@]2(C#N)C[C@H]12)C1CC1 | HTR2B | ligand displacement | – | radioligand | 15.4 nM
O=C(NO)c1cncc(OS(=O)(=O)Oc2ccc3ccccc3c2)c1 | HDAC2 (Homo sapiens, UniProt Q92769) | enzyme activity | inhibitor | fluorescence | 340 nM
C#CCOc1cccc(C(=O)CC(SCc2cccc(Br)c2)C(=O)O)c1 (stereo not drawn) | PLEKHA3 | ligand displacement | – | FP | 5560 nM
Cc1cc(Oc2ncccc2CN2CCN(c3ccccc3Br)CC2)ccc1-c1c(C)c(=O)[nH]c(=O)n1C | ADRA1B | ligand displacement | – | radioligand | 736 nM
CCOC(=O)[C@@]12C[C@@H]1[C@@H](n1cnc3c(NCCCCCCc4ccccc4)nc(I)nc31)[C@H](O)[C@@H]2O | SLC6A3 | ligand displacement | – | radioligand | 1200 nM
N#CC[C@@]12C[C@@H]1[C@@H](n1cnc3c(NC4CCCC4)nc(I)nc31)[C@H](O)[C@@H]2O | HTR2B | ligand displacement | – | radioligand | 6.79 nM
COc1ccc(Cl)cc1N1CCN(Cc2cccnc2Oc2ccc(-c3c(C)c(=O)[nH]c(=O)n3C)c(C)c2)CC1 | ADRA1B | ligand displacement | – | radioligand | 821 nM
N#C[C@@]12C[C@@H]1[C@@H](n1cnc3c(N[C@@H](C4CCC4)C4CC4)nc(I)nc31)[C@H](O)[C@@H]2O | HTR2B | ligand displacement | – | radioligand | 7.49 nM
Cc1ccc2oc(=O)cc(NCCO)c2c1 | ADRA1B V197I | ligand displacement in cells | – | flow cytometry | 182000 nM
Cc1cc(Oc2ncccc2CN2CCN(c3ccccc3)CC2)ccc1-c1c(C)c(=O)[nH]c(=O)n1C | ADRA1B | ligand displacement | – | radioligand | 3000 nM
CCOc1cccc(C(=O)CC(SCc2cccc(Br)c2)C(=O)O)c1 (stereo not drawn) | PLEKHA3 | ligand displacement | – | FP | 4260 nM
Cc1ccc2[nH]c(=O)c(CNC3CCCCC3)cc2c1 | ADRA1B V197I | ligand displacement in cells | – | flow cytometry | 4570 nM
CCOC(=O)c1cc(-c2ccc(OCC)cc2)oc1-c1ccc(Cl)cc1 | PLEKHA3 | ligand displacement | – | FP | 18000 nM
Cc1ccc(N2CCN(Cc3cccnc3Oc3ccc(-c4c(C)c(=O)[nH]c(=O)n4C)c(C)c3)CC2)cc1C | ADRA1B | ligand displacement | – | radioligand | 1010 nM
Clc1ccc(CNc2cccc(-c3nnc[nH]3)c2)c(Br)c1 | MTNR1A (Homo sapiens, UniProt P48039) | cell-free assay | – | – | 282 nM
CCOc1ccc(C(=O)CC(SCc2ccc(Cl)cc2)C(=O)O)cc1 (stereo not drawn) | PLEKHA3 | ligand displacement | – | FP | 6090 nM

A few entries again:
SMILES | target | effect on | action | method | Ki
Cc1cc(Oc2ncccc2CN2CCN(c3ccccc3Br)CC2)ccc1-c1c(C)c(=O)[nH]c(=O)n1C | ADRA1B | ligand displacement | – | radioligand | 736 nM
CCOC(=O)[C@@]12C[C@@H]1[C@@H](n1cnc3c(NCCCCCCc4ccccc4)nc(I)nc31)[C@H](O)[C@@H]2O | SLC6A3 | ligand displacement | – | radioligand | 1200 nM
N#CC[C@@]12C[C@@H]1[C@@H](n1cnc3c(NC4CCCC4)nc(I)nc31)[C@H](O)[C@@H]2O | HTR2B | ligand displacement | – | radioligand | 6.79 nM
